Published values pooled from the literature.
Numbered parts are unrelated; each lists some results of a single study. Positions count from the first letter of the parent shown.

Set 1
Target: ABI1, truncated, D143A, DHFR fusion (Arabidopsis thaliana)
Technique: DHFR PCA, deep sequencing
Medium: yeast
Setting: methotrexate growth selection, single substitutions
Together with: (+)-ABA 58 µM
Reference: wild-type fitted maximum
Direction: higher = stronger binding
Parent: PYL1, truncated, DHFR fusion (Arabidopsis thaliana); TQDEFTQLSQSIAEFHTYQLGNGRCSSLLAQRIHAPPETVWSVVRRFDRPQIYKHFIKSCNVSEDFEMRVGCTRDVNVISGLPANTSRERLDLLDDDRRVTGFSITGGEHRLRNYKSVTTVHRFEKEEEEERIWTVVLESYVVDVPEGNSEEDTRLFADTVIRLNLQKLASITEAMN; partner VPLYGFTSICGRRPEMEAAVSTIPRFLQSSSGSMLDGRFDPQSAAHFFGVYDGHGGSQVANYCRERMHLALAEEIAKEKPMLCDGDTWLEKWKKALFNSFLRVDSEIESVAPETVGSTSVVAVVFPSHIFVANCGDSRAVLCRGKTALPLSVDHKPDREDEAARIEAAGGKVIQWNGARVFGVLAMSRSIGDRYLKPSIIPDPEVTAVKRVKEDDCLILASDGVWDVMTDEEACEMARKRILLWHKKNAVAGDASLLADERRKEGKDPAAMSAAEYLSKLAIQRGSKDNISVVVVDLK
`H34F` — result for “relative binding score”: 80.8%.
For `H34E`, “relative binding score” read 87.3%.
For `L28F`, “relative binding score” read 66.7%.
`S26Y` — result for “relative binding score”: 77.1%.
`R99I`: “relative binding score” 1.54%.
`T86W`: “relative binding score” 91%.
For `T6I`, “relative binding score” read 82.9%.
`E64S` — result for “relative binding score”: 86.9%.
`V43S`: “relative binding score” 24.6%.
Under “relative binding score”, `D159N` is recorded as 82.3%.
Under “relative binding score”, `V136C` is recorded as 77.8%.
`R69H` — result for “relative binding score”: 88.3%.

Set 2
Target: RNA binding protein fox-1 homolog 2, RRM domain, GST-SBP tag (RBFOX2, Homo sapiens, UniProt O43251-10, residues 100-194)
Technique: RNA Bind-n-Seq
Form: RNA
Medium: in vitro
Concentration: 365 nM
Setting: natural RNA segment, single round, ends assumed
Reference: no-protein control
Direction: higher = stronger binding
Target sequence (chain): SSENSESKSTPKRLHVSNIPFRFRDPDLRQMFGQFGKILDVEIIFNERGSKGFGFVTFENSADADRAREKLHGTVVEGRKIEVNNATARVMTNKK
`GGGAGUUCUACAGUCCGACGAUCGCCACAGCCAUAGUGACUGCAUGAGCCAUCUGAACCUGCAGUCCACCCUCCCUGGAACCACACCAGAAAGAGACCUGGGUUGUCGUUUUCUUGCUUUUUGUUUUGUUUUGUGGAAUUCUCGGGUGCCAA` — result for “RBNS enrichment (R)”: 2.39.
Under “RBNS enrichment (R)”, `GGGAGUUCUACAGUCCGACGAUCAAGCAAGAUGCCCACACAACAGGCUUAUUUUCUGUGAAGGAACCAACUGAUCUCCCCCACCCUUGGAUUAGAGUUCCUGCUCUACCUUACCCACAGAUAACACAUGUUGUUGGAAUUCUCGGGUGCCAA` is recorded as 0.27.
`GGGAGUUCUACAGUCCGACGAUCGGCGCCGGCUUCGUGGCUCUGAGGUGUAACGGGGGUGGGCUCCCUCCCUCGGAGGACAUCGUCUGUGUCCAGGUCAGAAAGUGGCCCAGGAAGGGGGCAGUUUCUGUCGCUGGAAUUCUCGGGUGCCAA` — result for “RBNS enrichment (R)”: 0.424.
`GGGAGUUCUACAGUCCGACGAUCUUGCAUCUGCUUUUCCUGUAAGACUCCACUGUGCACUGGCAUCCAGAGAAGGUGUCUUUGGAGUUCACACAGCACACACUGUGCACAGAAGGCCUCCCCAUCUGGGAAAUUGGAAUUCUCGGGUGCCAA` — result for “RBNS enrichment (R)”: 0.458.
For `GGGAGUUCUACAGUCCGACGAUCAGUCCUUACCUCUGUCGGCAGCUCAGAGCCUCCACAUUUUUAUAUUUAAUUCUCAUGAUAAAUUAGCCACCAUAAUCCCAUGGAAUUAGGUCUUGUUAAAAUCUAGUCCGUGGAAUUCUCGGGUGCCAA`, “RBNS enrichment (R)” read 0.504.
For `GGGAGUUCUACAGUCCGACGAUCAGGGGUCUUGUGACUUGGAGAGGUCCUCAGCAGGCCUGGGAGCCCGGAUUGGAGCCUUGGCUGCCGUUGAGAAGCACUUACCUGCCAAGAUUUGCUGAUGCCAGACGAUCUGGAAUUCUCGGGUGCCAA`, “RBNS enrichment (R)” read 0.335.
`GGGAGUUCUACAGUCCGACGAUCGUCUACUUUUUUAAGCAGCAAAGUGUUCUGAGGAGUUGGUGUGUGAUGCCAAAGAGCUCAACGGGGCCUCUCAUGGUGAGCGUGGAUAGAUACGUGAUGUCUGGUCAUGUUGGAAUUCUCGGGUGCCAA` — result for “RBNS enrichment (R)”: 0.311.
`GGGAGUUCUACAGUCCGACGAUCCCACUGAGUACCAGGGGCUGGGCUCCCUGAUGACACCCACCCUGUGCCAUCACCAUAACCUCUGGGGACCCCAACCUCAGAGGCAGCUUCAAGUGCCUUUUGCUGCGCACUGGAAUUCUCGGGUGCCAA` — result for “RBNS enrichment (R)”: 0.433.
`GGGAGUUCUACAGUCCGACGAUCGUUUCGGAUUUGCAGUGAUGUGUCUUCCGGUGGCAAUGGACAGGGAAGGAGCACCCAUGUCCACUGGAACGGGAGAACAAGCCUUCGGCAUCUACAGGGUUACUGUUUGCUGGAAUUCUCGGGUGCCAA`: “RBNS enrichment (R)” 0.514.
Under “RBNS enrichment (R)”, `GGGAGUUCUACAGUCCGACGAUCUCUUUGCCAGUAAUGGGACACUUCUUUUGGCAUUUCUUGCAGAGUGCUUUUGAGGGACUUGGCUGUACCUCUCUUUGACUAGGAUAUCCCUGAAAGUUGGCCCUUGGUGUUGGAAUUCUCGGGUGCCAA` is recorded as 0.581.
Under “RBNS enrichment (R)”, `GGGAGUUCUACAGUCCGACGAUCCAAAGUAGUUUCCCAAGGCAUUUCCCCUAUUGUUUACAUGGUCAAAAGGAAAAUCAAAAUCACUUCUAAUUACAAAAUGUGCUGUUUUGGUGGGGUGGGCAAUCAGAUUAUGGAAUUCUCGGGUGCCAA` is recorded as 0.705.
`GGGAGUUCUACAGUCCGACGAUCUUGAUAGCACAACACAAAUUCCAUCCAAGAGGAGAAUCUUCCCCAGGGUUUAGUCCUGGGGCUGGCACUCGUUGUGACUUACACAGAGCAAAAUUGUGCUAAAGGCUUUUUGGAAUUCUCGGGUGCCAA` — result for “RBNS enrichment (R)”: 0.388.

Set 3
Target: Histone acetyltransferase KAT6A, both winged helices, GST fusion (KAT6A, Homo sapiens, UniProt Q92794, residues 1-181)
Technique: protein binding microarray
Form: double-stranded DNA, one strand shown
Medium: in vitro
Concentration: not given
Setting: 8-mer, flanks averaged, mean of 2 arrays, mostly near background
Reference: not given
Direction: higher = stronger binding
Target sequence (chain): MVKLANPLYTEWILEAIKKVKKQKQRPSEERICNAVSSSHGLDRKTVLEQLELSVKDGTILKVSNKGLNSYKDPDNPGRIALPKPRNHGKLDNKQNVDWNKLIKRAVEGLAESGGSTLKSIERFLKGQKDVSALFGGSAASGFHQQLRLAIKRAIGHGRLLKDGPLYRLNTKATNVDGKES
For `ACGCTTGG`, the E-score was 0.0196.
The E-score of `ATTTAACC` is reported as -0.022.
The E-score of `AAGGCCTA` is reported as -0.145.
`ATAGCTCA` has an E-score of 0.0197.
`AGCGCTCC` has an E-score of 0.253.
`TGGTCACA` gave an E-score of -0.0017.
For `AGTCAGAA`, the E-score was -0.0692.
For `CGCGCACC`, the E-score was 0.262.
The E-score of `AGGTCACC` is reported as -0.0227.
The E-score of `GCGTGAGC` is reported as 0.284.
`CTATGGTC` gave an E-score of -0.119.
`ACATTCTC` gave an E-score of -0.04.
`ACCGTCTC` gave an E-score of 0.0854.
With `AATGCACT` the E-score was 0.0179.
With `GACATAAC` the E-score was -0.00816.
`AGGTCCCG` gave an E-score of 0.152.
For `AACAGAGA`, the E-score was -0.161.
`CAGGGTCC` gave an E-score of -0.0626.

Further values, each from its own experiment
The fold induction of `PhoQ, residues 284 288 289 292 302 303 GANMMA` is reported as 2.68 (PhoP, residues 12 14 15 18 19 IQFRS (Escherichia coli, UniProt P23836); Sort-seq, refers to: YFP reporter; E. coli; PhoQ-PhoP variant library, together with: 10 µM Mg2+; reference: high Mg2+ state, higher = stronger signaling).

Repeated from above (set 3):
The E-score of `GCGTGAGC` is reported as 0.284.
`CTATGGTC` gave an E-score of -0.119.
`ACATTCTC` gave an E-score of -0.04.
`ACCGTCTC` gave an E-score of 0.0854.
With `AATGCACT` the E-score was 0.0179.
